Assay results pooled from the literature.
A part holds a random share of what one study measured. Positions count from the first letter of the parent shown.

Sample 1
Target: CCNE1, cyclin fold, Cln2 fusion (human)
Method: yeast growth competition, sequencing
Sample: yeast
Notes: strong parent motif
Relative to: not given
Direction: higher = stronger binding
Starting sequence: BRCA2 docking peptide (human); PSIKRNLLNEFDR; partner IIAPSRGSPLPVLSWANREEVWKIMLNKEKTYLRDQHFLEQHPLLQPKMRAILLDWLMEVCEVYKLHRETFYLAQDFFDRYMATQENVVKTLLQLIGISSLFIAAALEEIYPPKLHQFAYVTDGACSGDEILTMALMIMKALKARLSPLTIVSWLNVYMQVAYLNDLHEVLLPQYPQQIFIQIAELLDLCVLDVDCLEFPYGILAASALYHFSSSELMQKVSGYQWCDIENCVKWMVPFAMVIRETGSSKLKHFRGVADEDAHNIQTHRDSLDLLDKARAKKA
Under “normalised enrichment score”, `PSIKRNLLNEFDP [R13P]` is recorded as 0.601.
For `PSIKRPLLNEFDR [N6P]`, “normalised enrichment score” read 1.12.
Under “normalised enrichment score”, `PSIKRCLLNEFDR [N6C]` is recorded as -0.333.
`PSIKHNLLNEFDR [R5H]`: “normalised enrichment score” -0.566.
`PSIKRTLLNEFDR [N6T]`: “normalised enrichment score” 0.716.

Sample 2
Target: TAR DNA-binding protein 43, full length, His tag (TARDBP, Homo sapiens, UniProt Q13148, residues 1-414)
Method: RNA Bind-n-Seq
Form: RNA
Sample: in vitro
Tested at: 20 nM
Notes: 6-mer, flanks averaged, single round
With: 150 mM KCl
Relative to: input library
Direction: higher = stronger binding
`UGAAGG` — result for “6-mer enrichment (R)”: 1.62.
`UGAUGU`: “6-mer enrichment (R)” 0.846.
For `GCCAGG`, “6-mer enrichment (R)” read 1.91.
Under “6-mer enrichment (R)”, `UGCUUG` is recorded as 0.875.

Sample 3
Target: Interferon regulatory factor 3, full length, phosphomimetic (IRF3, Homo sapiens, UniProt Q14653, residues 1-427, S386D/S396D/S398D/S402D/T404D/S405D)
Method: protein-binding microarray
Form: double-stranded DNA, one strand shown
Sample: in vitro
Tested at: 2540 nM top
Notes: 60-bp whole probe
With: salmon DNA 0.4 mg/ml
Relative to: random background probes
Direction: higher = stronger binding
Shared flanks, not repeated: GCCTAGCAC … GTGCTAGGTCTTGATTCGCTTGACGCTGCTG
Target sequence (chain): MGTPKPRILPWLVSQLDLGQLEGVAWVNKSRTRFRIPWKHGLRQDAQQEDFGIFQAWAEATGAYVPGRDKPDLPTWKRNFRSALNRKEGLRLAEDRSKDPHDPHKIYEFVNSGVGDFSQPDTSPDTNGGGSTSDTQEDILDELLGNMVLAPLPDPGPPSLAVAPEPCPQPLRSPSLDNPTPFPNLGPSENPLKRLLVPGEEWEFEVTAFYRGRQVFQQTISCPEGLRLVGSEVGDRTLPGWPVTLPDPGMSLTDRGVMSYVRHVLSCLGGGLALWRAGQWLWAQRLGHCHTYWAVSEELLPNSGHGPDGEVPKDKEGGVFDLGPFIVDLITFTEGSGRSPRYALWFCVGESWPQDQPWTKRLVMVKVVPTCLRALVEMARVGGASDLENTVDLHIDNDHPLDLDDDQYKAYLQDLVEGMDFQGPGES
`ATTACTCCCCAACTCGCCTT` — result for “fitted relative affinity”: 1.28 z-score.
`GACGGTTTCCTACGGCTGAC` — result for “fitted relative affinity”: 3 z-score.
Under “fitted relative affinity”, `GGGTCTGTGCCTTTTTTTTT` is recorded as 0.354 z-score.
`GACGATATCAGACTGGAGAC`: “fitted relative affinity” 0.17 z-score.
Under “fitted relative affinity”, `ATAGGTTTCGGTATCGGTTA` is recorded as 9.42 z-score.

Single results of other studies
For `PhoQ, residues 284 288 289 292 302 303 NSMLDC`, the fold induction was 4.44 (PhoP, residues 12 14 15 18 19 NQAHL (Escherichia coli, UniProt P23836); Sort-seq, measured: YFP reporter; E. coli; PhoQ-PhoP variant library, with: 10 µM Mg2+; relative to: high Mg2+ state, higher = stronger signaling).
